# Experimental data collected from several papers.
# Each line is one published result; not all experiments were run side by side.
SMILES,method,medium,temperature,notes,pKa
NCC1CC2(CC2)CO1 (stereo not drawn),potentiometric titration,methanol-water,25 °C,amine hydrochloride,8.9
c1cc2nc(c1)CSCc1cccc(n1)CSC2,,0.1 M NaCl,25 °C,HL+ deprotonation,5.47
Cc1ccc2c(Br)ccc(O)c2n1,capillary electrophoresis,,,,9.2
NS(=O)(=O)c1ccc(SCCO)cc1,,,,sulfonamide group,9.96
NCC1CC2(CC2)C1,potentiometric titration,methanol-water,25 °C,amine hydrochloride,10.1
Cc1cc(S(N)(=O)=O)c(Cl)cc1NC1CCCCC1,,,,sulfonamide group,9.82
NCC1CC2(CO1)CC(F)(F)C2 (stereo not drawn),potentiometric titration,methanol-water,25 °C,amine hydrochloride,9.2
CC(C)(C)N1Cc2cccc(n2)CN(C(C)(C)C)Cc2cc(-c3nc4ccccc4s3)cc(n2)C1,,0.1 M NaCl,25 °C,HL+ deprotonation,10.1
O=C(O)C1CC2(CCC2)CO1 (stereo not drawn),potentiometric titration,methanol-water,25 °C,carboxylic acid,3.7
CC(C)(C)Nc1c(F)c(S(N)(=O)=O)c(F)c(F)c1S(=O)(=O)CCc1ccccc1,,,,sulfonamide group,7.87
O=C(NC[C@H](Cc1ccccc1)N1CCC(O)(C(F)(F)F)CC1)C1(c2ccc(Cl)cc2)CCCC1,UV-metric,,,,6.16
O=C(O)C1CC2(CCC2)C1,potentiometric titration,methanol-water,25 °C,carboxylic acid,4.6
CNc1c(F)c(S(N)(=O)=O)c(F)c(F)c1S(=O)(=O)CCc1ccccc1,,,,sulfonamide group,7.87
O=C(O)c1cccnc1Nc1cccc(C(F)(F)F)c1,,,,basic,< 2
NS(=O)(=O)c1c(F)c(F)c(S(=O)(=O)CCc2ccccc2)c(N[C@H]2CCc3ccccc32)c1F,,,,sulfonamide group,7.87
FC(F)(F)C1(c2ccc(CN3CCN(C(c4ccccc4)c4ccc(Cl)cc4)CC3)cc2)CC1 (stereo not drawn),acid-base titration,,,,3.41
Cc1ccc2ccc(F)c(O)c2n1,capillary electrophoresis,,,,9
Cc1cc(NC(=O)c2ccc(Br)cc2)n[nH]1,,,,,2.19
COc1ccc(O)c2nc(C)ccc12,capillary electrophoresis,,,,10.6
NS(=O)(=O)c1cc(C(=O)NCCCC(=O)O)c(NC2CCCCC2)cc1Cl,,,,sulfonamide group,9.5
Cc1ccc2c(F)ccc(O)c2n1,capillary electrophoresis,,,,9.4
COCCNC(=O)c1cc(S(N)(=O)=O)c(Cl)cc1NC1CCCCC1,,,,sulfonamide group,9.5
Cc1ccc2ccc(C)c(O)c2n1,capillary electrophoresis,,,,10.7
O=C(NC[C@H](Cc1ccc(F)cc1)N1CCC(O)(C(F)(F)F)CC1)C1(c2ccc(Cl)cc2)CCCC1,UV-metric,,,,5.91
Cc1ccc2c(Cl)ccc(O)c2n1,capillary electrophoresis,,,,9.2
NCC1CC2(CCC2)CO1 (stereo not drawn),potentiometric titration,methanol-water,25 °C,amine hydrochloride,9.5
Cc1ccc2ccc([N+](=O)[O-])c(O)c2n1,capillary electrophoresis,,,,6.65
c1cc2nc(c1)CSCc1cc(-c3nc4ccccc4s3)cc(n1)CSC2,,0.1 M NaCl,25 °C,H2L2+ deprotonation,4.1
NS(=O)(=O)c1c(F)c(F)c(S(=O)(=O)CCO)c(NC2CCCCCCC2)c1F,,,,sulfonamide group,8.01
Cc1ccc2ccc(Cl)c(O)c2n1,capillary electrophoresis,,,,8.65

# Repeated from above:
SMILES,method,medium,temperature,notes,pKa
NS(=O)(=O)c1c(F)c(F)c(S(=O)(=O)CCc2ccccc2)c(N[C@H]2CCc3ccccc32)c1F,,,,sulfonamide group,7.87
Cc1cc(NC(=O)c2ccc(Br)cc2)n[nH]1,,,,,2.19
Cc1cc(S(N)(=O)=O)c(Cl)cc1NC1CCCCC1,,,,sulfonamide group,9.82
NCC1CC2(CC2)CO1 (stereo not drawn),potentiometric titration,methanol-water,25 °C,amine hydrochloride,8.9
